# Experimental data pooled from the literature.
# Every numbered part comes from another study and shows a few of its results, in no order.

# Block 1 — technique: protein-binding microarray; form: double-stranded DNA, one strand shown; medium: in vitro; concentration: not given; direction: higher = stronger binding
# Target: Hepatocyte nuclear factor 3-beta, forkhead domain (FOXA2, Homo sapiens, UniProt Q9Y261, residues 142-269)
# Setting: k-mer, scored over probes, only values ≥0.25
# Construct (chain): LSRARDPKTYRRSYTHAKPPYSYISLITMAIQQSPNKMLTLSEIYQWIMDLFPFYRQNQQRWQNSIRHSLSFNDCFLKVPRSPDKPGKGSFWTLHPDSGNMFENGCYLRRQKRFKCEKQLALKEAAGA
Strand,E-score
ATTATCAC,0.288
ACTACAGA,0.273
TACACTCA,0.274
TACACTGA,0.318
ATATACCA,0.312
ATAATAGA,0.322
ACATTACT,0.257
CCAACATA,0.314
ATATTCAC,0.259
AACAGAAA,0.289
AGTTGATA,0.357
CATTGAAA,0.253
AGGTCAAC,0.262
TATATATA,0.381
ACACTTTA,0.285
CCAATTTA,0.267
ACACTTAA,0.269
AAGTGTAT,0.314
ATTGTTCA,0.326
TACAGTCA,0.312
ACAGAAAC,0.273
TGATAACA,0.301
ATGTCAAT,0.28
AATGTATG,0.265
CTTATAAC,0.347

# Block 2 — technique: aptamer microarray, sandwich; form: DNA with 2'F-ANA; medium: in vitro; concentration: 200 nM; added: Cy3 exosite-II aptamer, 400 nM; direction: higher = stronger binding; strand: GGTTGGTGTGGTTGG
# Target: Prothrombin, mature alpha-thrombin (F2, Homo sapiens, UniProt P00734)
# Setting: whole 15-mer aptamer, many near background
Modification,mean fluorescence intensity [a.u.]
2'F-ANA at 2 8 10 11 14,75.8
2'F-ANA at 2 7 10 12 13 14 15,117
2'F-ANA at 1 2 4 6 7 8 10 11,68.6
2'F-ANA at 1 2 3 5 9 12 14 15,44.7
2'F-ANA at 1 4 11 12 13 14,70.4
2'F-ANA at 2 3 4 5 6 7 8 9 10 11 12 14 15,52.9
2'F-ANA at 1 3 4 6 9 11 12 14,67.8
2'F-ANA at 2 3 4 6 8 9 11 12 13,487
2'F-ANA at 1 2 3 5 7 8 9 11,58.6
2'F-ANA at 1 2 6 9 10 12 13 14 15,49.9
2'F-ANA at 2 5 7 8 9 10 11 12 14,45.2
2'F-ANA at 2 3 5 7 8 10 11 12 13 14,53
2'F-ANA at 1 2 4 5 7 8 9 12 13 14 15,49.3
2'F-ANA at 1 4 5 6 10,99.8
2'F-ANA at 4 5 6 7 10 11 15,52.2
2'F-ANA at 1 2 4 6 7 9 10 11 14,50.5
2'F-ANA at 1 3 4 6 8 10 11 12 13 14 15,48.5
2'F-ANA at 1 3 6 8 9 10 13 15,89.1
2'F-ANA at 2 6 7 8 9 12 13,580
2'F-ANA at 1 4 7 11 12 13 15,185
2'F-ANA at 1 3 5 6 11 12 15,90.8
2'F-ANA at 1 4 5 9,58.1
2'F-ANA at 2 6 7 8 9 10 11 12 15,132
2'F-ANA at 1 2 3 4 8 10 13 14,52

# Block 3 — technique: protein binding microarray; form: double-stranded DNA, one strand shown; medium: in vitro; concentration: not given; reference: not given; direction: higher = stronger binding
# Target: Histone acetyltransferase KAT6A, winged helix 2, GST fusion (KAT6A, Homo sapiens, UniProt Q92794, residues 85-181)
# Setting: 8-mer, flanks averaged, mean of 2 arrays, mostly near background
# Target sequence (chain): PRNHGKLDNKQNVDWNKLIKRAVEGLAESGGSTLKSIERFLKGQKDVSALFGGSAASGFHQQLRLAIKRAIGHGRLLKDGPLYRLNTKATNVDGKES
Strand,E-score
CGGACGTA,-0.25
CTGGTCTA,-0.284
CTACAATA,-0.153
TAGGGATA,-0.00622
CGCTGTAC,-0.0929
AAGGGCCC,-0.006
ACGAAATA,0.136
CATAGCAA,0.037
AGGACCTA,0.0415
ACTTCCGG,-0.0403
CCCTGCTC,0.085
AACATTCC,-0.056
GGTCGGTA,-0.0934
AAGTAGGA,-0.105
ACCTTGAA,-0.0118
AGGATACC,0.0473
TGCCCAAA,0.0606
CCAACAGA,0.0121
ATTTATCC,0.16
AAAGTTTG,0.0213
GAGTAGCC,-0.0337
CTTACTAC,-0.209
TGTTAAAA,-0.0214
CGTAGTCA,-0.208
AAAGCGGT,0.0353

# Block 4 — technique: protein-binding microarray; form: double-stranded DNA, one strand shown; medium: in vitro; concentration: 940 nM top; setting: 60-bp whole probe; added: salmon DNA 0.4 mg/ml; reference: random background probes; direction: higher = stronger binding; all sequences stand within: GCCTAGCAC … GTCTTGATTCGCTTGACGCTGCTG
# Target: Interferon regulatory factor 5, full length, phosphomimetic (IRF5, Homo sapiens, UniProt Q13568-2, residues 1-514, S451D/S453D/S456D/S462D)
Strand,fitted relative affinity [z-score]
GACCGTATCGGTATCGGGACGTGCTAG,5.89
GACGGTATCGGACTGGGGCCGTGCTAG,2.52
TTAGGACTCGGACTGGGTTAGTGCTAG,-0.497
TTAGGACTAGGGTATCGGTTAGTGCTA,1.64
TTAGTTTCCAGTTTCGATTAGTGCTAG,9.78
TCATTTTTAATGAATGAAACTGTGCTA,0.238
GACGTTTCCGGTTTCGGGACGTGCTAG,4.15
GAGGAGATGAGAAACGATGAGTGCTAG,0.106
GACGGTCTCCTCCTCCTGACGTGCTAG,-0.0598
TCATCTTTCGATGCTAAAACTGTGCTA,2.53
GACGGACTGCTTTACCTGACGTGCTAG,-0.49
GACGGACTGGATTTCGGGACGTGCTAG,-0.363
TTAGATTCCGGGTTTCGATTAGTGCTA,5.47
CTAGATTTCAGTATCGATTAGTGCTAG,6.09
TTAGGACTGCTTCGCCTTTAGTGCTAG,-0.415
TTAGATATCCGGTTTCGATTAGTGCTA,6.46
GCCGATATCGGGACTGGAGACGTGCTA,-0.243

# Excerpt of the above (block 3):
Strand,E-score
CCCTGCTC,0.085
AACATTCC,-0.056
GGTCGGTA,-0.0934
AAGTAGGA,-0.105
ACCTTGAA,-0.0118
AGGATACC,0.0473
TGCCCAAA,0.0606
CCAACAGA,0.0121
ATTTATCC,0.16
AAAGTTTG,0.0213
GAGTAGCC,-0.0337
CTTACTAC,-0.209
TGTTAAAA,-0.0214
